Assay results pooled from the literature.
Compare with care: the assays were run in different laboratories. Several values in a cell are separate wells, animals, samples, runs or records.

| Structure (SMILES) | assay | system | setting | how to read | measurement | value |
| --- | --- | --- | --- | --- | --- | --- |
| CCCCCN1C[C@H](O)[C@@H](O)[C@H](O)[C@@H]1CO | RNA sequencing, item: Hallmark interferon gamma genes | Hexb-/- mouse, hippocampus | 30 mg/kg/day | direction not given | genomic disease score | 0.35 |
| COc1cc(CC(=O)O)ccc1O | binding, MIDAS equilibrium dialysis LC-MS | A2AR-BRIL thermostabilized | concentration not given | relative to: no-protein control | log2 fold change | -0.764 |
| CCOc1c([C@H](C)n2nc(C)c3c(N)ncnc32)cc(Cl)c(F)c1[C@@H]1CNC(=O)C1 | Olink proximity extension proteomics, item: TNFB | human FL or MZL patients, plasma | dose not given, week 8 | relative to: baseline | plasma protein level change | -54% |
| C=CCN(C)CCCCCCOc1ccc(C(=O)c2ccc(Br)cc2)c(F)c1 | cell viability | Mut6 cells, mouse | together with: exogenous lanosterol | relative to: without lanosterol | fold IC50 increase | 21.7 fold |
| Oc1ccc(Br)cc1C=NCCN1CCOCC1 | FRAP |  | 40 µM |  | ferric reducing power | 10.3% |
| O=C1CCc2ccc(OCCCCN3CCN(c4cccc(Cl)c4Cl)CC3)cc2N1 | stop or switch frequency | human patients, CYP2D6 ultrarapid metabolizers | dose not given, 6 months, genetic phenotype only |  | treatment discontinuation | 48% |
| N#Cc1ccc2c(c1)[C@H]1CCCN(C(=O)c3ccc4[nH]cnc4c3)[C@H]1C2 | item: systolic blood pressure | human | 20 mg once daily, day 28, adjusted mean | relative to: placebo | change from baseline | 4 mmHg |
| Cn1cc(Nc2nccc(-c3ccc4c(c3)CN(C3COC3)CC[C@H]4NC(=O)c3cn(C(C)(C)C)nn3)n2)cn1 | item: Dendritic Cell Maturation | splenic B cells, mouse | in vivo, 30 mg/kg, IgD-activated B cells | relative to: vehicle, positive = activation | pathway activation z-score | 3.41 |
| N#Cc1ccn2c(-c3ccncc3)c(-c3ccc(F)cc3)nc2c1 | kinase binding, competitor, MIB/MS competition, item: AKL1 | Candida albicans cell lysate | 1 µM | relative to: DMSO | log2 fold change | -0.16 |
| N#Cc1ccc2c(c1)[C@H]1CCCN(C(=O)c3ccc4[nH]cnc4c3)[C@H]1C2 |  | T2DM patients with overweight or obesity, plasma | oral, 20 mg, day 15 (360 h), multiple dosing, mean |  | fasting plasma glucose | 141 mg/dL |
| Cn1cc([C@H]2C[C@H]3CSC(N)=N[C@@]3(c3ccc(F)cc3F)CO2)cn1 | item: Aβx-40 | wild-type mouse, brain | subcutaneous, 50 mg/kg, 6 h |  | brain Aβ40 level | 0.99 ng/g |
| NCC(=O)Nc1cncc(-c2nn3c(=O)cc(N4CCNCC4)nc3s2)c1 | ADP-induced platelet aggregation, light transmission aggregometry | human, stable CAD on aspirin, ex vivo platelets | subcutaneous, 0.04 mg/kg, 30 min post-dose, median value, together with: ADP 20 µM |  | inhibition | 45% |
| COc1cc2nccc(Oc3ccc(NC(=O)c4cc5c(n(-c6ccccc6)c4=O)CCCC5=O)nc3)c2cc1OC | Mantel-Haenszel | MOLM-13 luc/gfp xenograft, mice | diet, 0.013% in feed | relative to: control over treated | hazard ratio | 5.53 |
| CC(C)NCC(O)c1ccc(O)c(O)c1 (stereo not shown) |  | ventricular cardiomyocytes, C57BL/6 mouse | dose not given, 0.352 s |  | sarcomere length | 1.72 µm |
| CCCCC1(CCCC)CN(c2ccccc2)c2cc(SC)c(OCC(=O)N[C@@H](C(=O)NCC(=O)O)c3ccccc3)cc2S(=O)(=O)C1 | item: 7α-hydroxy-4-cholesten-3-one | human, plasma | 2.5 mg once daily, day 2 |  | plasma C4 | 41.8 ng/mL |
| O=C(O)CNC(=O)C(CS)Cc1ccccc1 (stereo not shown) | LC-MS/MS, item: extracellular Met-enkephalin | mouse striatal brain slices | 10 µM, 20 min, together with: 50 mM KCl |  | Met-enkephalin concentration | 13300 pM and 12300 pM and 28500 pM and 8740 pM and 823 pM and 76700 pM and 11000 pM and 5470 pM |
| N[C@@H](Cc1ccc(O)c(I)c1)C(=O)O | binding, MIDAS equilibrium dialysis LC-MS | A2AR-BRIL thermostabilized | concentration not given | relative to: no-protein control | log2 fold change | 0.0494 |
| [Cl][Fe]([Cl])[Cl] |  |  | 1.0 mg/mL, 30 min, 25 °C |  | DPPH scavenging | 57.1% |
| CC(C)c1c(C(=O)Nc2ccccc2)c(-c2ccccc2)c(-c2ccc(F)cc2)n1CC[C@@H](O)C[C@@H](O)CC(=O)O |  | cynomolgus monkey, female, serum | 40 mg/kg or 25 mg/kg, day 176, 4224 h |  | HDL-C | 74.7 mg/dL |
| C[C@@H](NC(=O)N1C(=O)[C@H](Cc2ccnc(N)c2)[C@H]1C(=O)O)C1CCCCC1 |  | human | iv infusion, 1.0 mg/kg/h, 24 h |  | ACT Emax | 136 s |
| CC1(C)CCC(c2ccc(Cl)cc2)=C(CN2CCN(c3ccc(C(=O)NS(=O)(=O)c4ccc(N[C@H](CCN5CCOCC5)CSc5ccccc5)c(S(=O)(=O)C(F)(F)F)c4)cc3)CC2)C1 | cell killing | canine lymph node CD3+ T cells, dog 30 | 24 h |  | EC50 | 21 nM |
| Cc1cc([C@H]2C[C@H]3[C@@H](C)SC(N)=N[C@@]3(c3ccc(F)cc3F)CO2)on1 | item: Aβx-40 | wild-type mouse, brain | subcutaneous, 50 mg/kg, 1 h |  | brain Aβ40 level | 1.73 ng/g |
| C=CCn1c(=O)c2cnc(Nc3ccc(N4CCN(C)CC4)cc3)nc2n1-c1ccc2c(n1)[C@@](O)(CC)CC2 |  | SUM149PT xenograft, BALB/c nude mice | oral, 80 mg/kg, day 33, once daily intermittent x 6 cycles |  | tumour growth inhibition | 91.4% |
| C[C@H](Oc1ccc(Br)cc1-c1ccon1)C(=O)O | muscle velocity recovery cycles | human, tibialis anterior muscle | 600 mg once daily, multiple doses, frequency ramp, last response at 15 Hz | relative to: placebo | latency change | 0.623% |
| CC1(C)CCC2(CC1)N[C@@H](C(=O)N[C@@H]1CC[C@@H](C(N)=O)OC1)[C@H](c1ccnc(Cl)c1F)[C@]21C(=O)Nc2cc(Cl)ccc21 | RECIST | patients with solid tumours | dose not given | relative to: patients | non-evaluable patients | 25% |

| Structure (SMILES) | assay | system | setting | how to read | measurement | value |
| --- | --- | --- | --- | --- | --- | --- |
| NC(=O)c1cnc2[nH]ccc2c1N[C@@H]1[C@@H]2CC3C[C@H]1C[C@@](O)(C3)C2 | CD8+ central memory T cells, flow cytometry | Caucasian humans, peripheral blood | 60 mg single dose | relative to: baseline | percent change | 0.93% |
| COc1ccc(-c2cncc(N[C@@H](C)c3cccc(NC(=O)c4cncc(C)c4)c3)n2)cc1OC | item: rno-miR-323-3p | rat SU5416/hypoxia model, lung | dose not given, unit not given | relative to: SU5416/hypoxia vehicle | delta delta Ct | -0.37 |
| CCCCCCCC(=O)O | binding, MIDAS equilibrium dialysis LC-MS | A2AR-BRIL thermostabilized | concentration not given | relative to: no-protein control | log2 fold change | -0.13 |
| C[C@@H]1CCC[C@H](n2cnc(-c3cc(Cl)ccc3-n3cc(Cl)nn3)cc2=O)c2cc(ccn2)-c2c(cnn2C(F)F)NC1=O |  | rat plasma | IC2× aPTT, STA-PTT reagent |  | concentration for aPTT prolongation | > 40 µM |
| COc1cc(Nc2ncc3c(n2)-c2ccc(Cl)cc2C(c2c(F)cccc2OC)=NC3)ccc1C(=O)O |  | mouse, KT-10 Wilms tumour xenograft | 20.8 mg/kg | direction not given | median response score | 10 |
| NCCCC(=O)O | binding, MIDAS equilibrium dialysis LC-MS | A2AR-BRIL thermostabilized | concentration not given | relative to: no-protein control | log2 fold change | -0.257 |
| O=C(O)CNC(=O)Cc1ccccc1 |  | ventricular cardiomyocytes, C57BL/6 mouse | dose not given, 0.348 s |  | sarcomere length | 1.72 µm |
| Cc1cc([C@H]2C[C@H]3[C@@H](CF)SC(N)=N[C@@]3(c3ccc(F)cc3F)CO2)on1 | item: Aβx-40 | Mus musculus wild-type, cerebrospinal fluid | subcutaneous, 30 mg/kg, 3 h |  | Aβ40 level | 0.33 ng/mL |
| Cc1n[nH]c2ccc(-c3cc(OC[C@@H](N)Cc4ccccc4)cnc3-c3ccoc3)cc12 | kinase binding, competitor, MIB/MS competition, item: NPR1 | Candida albicans cell lysate | 1 µM | relative to: DMSO | log2 fold change | -0.0888 |
| O=P(O)(O)C(Cl)(Cl)P(=O)(O)O | open field test | UT+/+ and UT-/- mice, SAH | 23000 µg/mL |  | distance travelled | 23 m and 26 m and 21 m and 17 m and 29 m |
| N#CCC1CCN(c2nc(Nc3ccc(N4CCC(O)CC4)cc3)c3c(=O)[nH]ncc3n2)CC1 | Olink multiplex | human, serum | 20 mg, day 29, unit not given | relative to: baseline | GIF level change | 1.08 |
| OC(CCN1CCCCC1)(c1ccccc1)C1CC2C=CC1C2 (stereo not shown) | resting-state EEG | healthy elderly humans | oral, 4 mg, eyes open, LS mean | relative to: baseline | EEG power, Beta, change in Fz/Cz | 3.8% |
| O=P(O)(O)O[C@@H]1[C@H](O)[C@H](O)[C@@H](OP(=O)(O)O)[C@H](OP(=O)(O)O)[C@H]1O | binding, MIDAS equilibrium dialysis LC-MS | A2AR-BRIL thermostabilized | concentration not given | relative to: no-protein control | log2 fold change | -0.453 |
| c1ccc(-c2n[nH]cc2-c2ccnc3ccccc23)nc1 | kinase binding, competitor, MIB/MS competition, item: CKA2 | Candida albicans cell lysate | 100 nM | relative to: DMSO | log2 fold change | 1.41 |
| COc1cccc2c1C(=O)c1c(O)c3c(c(O)c1C2=O)C[C@@](O)(C(=O)CO)C[C@@H]3O[C@H]1C[C@H](N)[C@H](O)[C@H](C)O1 | organoid viability, CellTiter-Glo 3D | sample D colorectal cancer organoid, human | 6 days |  | IC50 | 0.96 nM |
| O=C(O)/C=C\C(=O)O | binding, MIDAS equilibrium dialysis LC-MS | A2AR-BRIL thermostabilized | concentration not given | relative to: no-protein control | log2 fold change | -0.131 |
| CC(=O)Oc1cc2c(s1)CCN(C(C(=O)C1CC1)c1ccccc1F)C2 (stereo not shown) | platelet aggregation, light transmission aggregometry | human patients, platelet-rich plasma | 2 h, together with: TRAP 15 µM |  | patients with IPA above 90% | 0% |
| C[C@@H](O)CCOC(=O)C[C@@H](C)O |  | human | oral drink, dose not given, 240 min post dose, median, all participants |  | plasma NEFA | 0.2 mM |
| CC1(C)OCCn2c1nc1c(N3CCOCC3)nc(-c3cnc(N)nc3)nc12 | RNA sequencing, item: HALLMARK_INTERFERON_GAMMA_RESPONSE | MB002 tumour | concentration not given | relative to: vehicle, direction not given | GSEA enrichment score | 0.195 |
| Cc1coc([C@H]2C[C@H]3[C@@H](CF)SC(N)=N[C@@]3(c3ccc(F)cc3F)CO2)n1 | item: Aβx-40 | wild-type mouse, brain | subcutaneous, 80 mg/kg, 3 h |  | brain Aβ40 level | 1.31 ng/g |
| CC(C)CC(=O)SCCNC(=O)CCNC(=O)[C@H](O)C(C)(C)COP(=O)(O)OP(=O)(O)OC[C@H]1O[C@@H](n2cnc3c(N)ncnc32)[C@H](O)[C@@H]1OP(=O)(O)O | binding, MIDAS equilibrium dialysis LC-MS | A2AR-BRIL thermostabilized | concentration not given | relative to: no-protein control | log2 fold change | -0.272 |
| CSCCNc1nc(SCCC(F)(F)F)nc2c1ncn2[C@@H]1O[C@H](COP(=O)(O)OP(=O)(O)C(Cl)(Cl)P(=O)(O)O)[C@@H](O)[C@H]1O | light transmittance aggregometry | human patients, platelet-rich plasma | dose not given, 3 h, together with: ADP 20 µM | relative to: patients | patients with IPA above 80% | 2.6% |
| C[C@H]1C[C@H]2CSC(N)=N[C@@]2(c2nc(NC(=O)c3ccc(OC(F)F)cn3)cs2)CO1 | item: total Aβ | healthy adults, plasma | 200 mg single dose, 48 h post-dose | relative to: placebo | percent change from baseline | -62% |
| CC(CC(=O)O)CC(=O)O | binding, MIDAS equilibrium dialysis LC-MS | A2AR-BRIL thermostabilized | concentration not given | relative to: no-protein control | log2 fold change | -0.376 |

Excerpt of the above:
| Structure (SMILES) | assay | system | setting | how to read | measurement | value |
| --- | --- | --- | --- | --- | --- | --- |
| CCCCCN1C[C@H](O)[C@@H](O)[C@H](O)[C@@H]1CO | RNA sequencing, item: Hallmark interferon gamma genes | Hexb-/- mouse, hippocampus | 30 mg/kg/day | direction not given | genomic disease score | 0.35 |
| OC(CCN1CCCCC1)(c1ccccc1)C1CC2C=CC1C2 (stereo not shown) | resting-state EEG | healthy elderly humans | oral, 4 mg, eyes open, LS mean | relative to: baseline | EEG power, Beta, change in Fz/Cz | 3.8% |
| CC1(C)CCC2(CC1)N[C@@H](C(=O)N[C@@H]1CC[C@@H](C(N)=O)OC1)[C@H](c1ccnc(Cl)c1F)[C@]21C(=O)Nc2cc(Cl)ccc21 | RECIST | patients with solid tumours | dose not given | relative to: patients | non-evaluable patients | 25% |
| N#Cc1ccc2c(c1)[C@H]1CCCN(C(=O)c3ccc4[nH]cnc4c3)[C@H]1C2 | item: systolic blood pressure | human | 20 mg once daily, day 28, adjusted mean | relative to: placebo | change from baseline | 4 mmHg |
